Published values of several laboratories.
Compare with care: the assays were run in different laboratories. Values joined by “and” are separate records of one study, mostly repeats; a detail may differ. ± marks the error that the study gave.
EPHB4: Ephrin type-B receptor 4 (EPHB4, Homo sapiens, UniProt P54760)
Chain of UniProt P54760 (whole entry, looked up): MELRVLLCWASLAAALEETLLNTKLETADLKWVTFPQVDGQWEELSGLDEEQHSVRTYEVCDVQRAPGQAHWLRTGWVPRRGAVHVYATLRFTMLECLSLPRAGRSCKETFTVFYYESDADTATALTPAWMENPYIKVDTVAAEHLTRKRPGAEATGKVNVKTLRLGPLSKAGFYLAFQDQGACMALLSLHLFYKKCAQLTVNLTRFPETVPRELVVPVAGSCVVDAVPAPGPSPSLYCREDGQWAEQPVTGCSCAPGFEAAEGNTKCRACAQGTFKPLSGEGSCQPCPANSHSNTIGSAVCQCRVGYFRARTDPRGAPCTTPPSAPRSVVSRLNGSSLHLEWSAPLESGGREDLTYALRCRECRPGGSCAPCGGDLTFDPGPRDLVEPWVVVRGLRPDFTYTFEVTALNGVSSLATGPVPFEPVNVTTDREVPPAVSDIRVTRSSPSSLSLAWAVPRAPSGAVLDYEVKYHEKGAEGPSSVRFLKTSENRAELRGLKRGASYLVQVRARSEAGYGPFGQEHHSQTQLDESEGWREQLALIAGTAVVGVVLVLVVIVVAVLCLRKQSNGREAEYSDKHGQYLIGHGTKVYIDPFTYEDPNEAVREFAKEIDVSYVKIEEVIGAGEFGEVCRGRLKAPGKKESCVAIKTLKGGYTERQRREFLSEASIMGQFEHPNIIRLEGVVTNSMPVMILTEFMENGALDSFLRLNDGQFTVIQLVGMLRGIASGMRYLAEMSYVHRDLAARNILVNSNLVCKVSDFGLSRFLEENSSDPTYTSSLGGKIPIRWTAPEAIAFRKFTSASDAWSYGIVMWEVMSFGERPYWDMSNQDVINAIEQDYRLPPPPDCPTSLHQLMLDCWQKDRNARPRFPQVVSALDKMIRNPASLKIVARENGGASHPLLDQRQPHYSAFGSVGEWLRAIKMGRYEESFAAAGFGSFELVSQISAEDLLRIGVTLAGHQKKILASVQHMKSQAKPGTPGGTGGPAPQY
Oprd1: Delta-type opioid receptor (Oprd1, Rattus norvegicus, UniProt P33533)
Chain of UniProt D0VWV4 (whole entry, looked up): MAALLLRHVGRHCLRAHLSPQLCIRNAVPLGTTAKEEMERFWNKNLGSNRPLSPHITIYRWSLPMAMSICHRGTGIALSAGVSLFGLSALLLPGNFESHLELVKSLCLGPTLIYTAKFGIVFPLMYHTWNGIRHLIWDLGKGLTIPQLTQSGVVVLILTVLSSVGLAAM
Chain of UniProt P33533 (whole entry, looked up): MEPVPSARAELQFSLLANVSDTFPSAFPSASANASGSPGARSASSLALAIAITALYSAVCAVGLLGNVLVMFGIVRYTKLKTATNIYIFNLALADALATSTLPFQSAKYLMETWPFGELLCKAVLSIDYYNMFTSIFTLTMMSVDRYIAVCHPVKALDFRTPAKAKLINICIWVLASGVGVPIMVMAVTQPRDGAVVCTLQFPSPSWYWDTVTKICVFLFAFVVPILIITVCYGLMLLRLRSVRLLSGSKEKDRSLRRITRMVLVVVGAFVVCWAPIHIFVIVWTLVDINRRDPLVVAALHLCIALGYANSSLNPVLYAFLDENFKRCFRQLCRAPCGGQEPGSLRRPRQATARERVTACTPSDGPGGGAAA
Chain of UniProt A5GZW8 (whole entry, looked up): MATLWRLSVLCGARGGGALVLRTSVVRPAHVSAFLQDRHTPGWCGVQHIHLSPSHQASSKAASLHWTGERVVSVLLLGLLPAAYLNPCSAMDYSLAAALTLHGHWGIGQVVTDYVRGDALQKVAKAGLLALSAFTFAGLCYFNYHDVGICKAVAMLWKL
Chain of UniProt Q007T0 (whole entry, looked up): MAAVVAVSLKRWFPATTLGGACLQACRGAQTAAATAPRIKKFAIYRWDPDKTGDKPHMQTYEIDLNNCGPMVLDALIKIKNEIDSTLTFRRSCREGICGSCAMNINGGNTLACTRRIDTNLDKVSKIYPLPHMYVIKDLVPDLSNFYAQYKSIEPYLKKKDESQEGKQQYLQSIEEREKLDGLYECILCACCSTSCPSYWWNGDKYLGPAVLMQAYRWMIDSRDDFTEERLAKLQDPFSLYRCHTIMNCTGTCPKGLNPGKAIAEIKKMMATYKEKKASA
Chain of UniProt Q9R0P3 (whole entry, looked up): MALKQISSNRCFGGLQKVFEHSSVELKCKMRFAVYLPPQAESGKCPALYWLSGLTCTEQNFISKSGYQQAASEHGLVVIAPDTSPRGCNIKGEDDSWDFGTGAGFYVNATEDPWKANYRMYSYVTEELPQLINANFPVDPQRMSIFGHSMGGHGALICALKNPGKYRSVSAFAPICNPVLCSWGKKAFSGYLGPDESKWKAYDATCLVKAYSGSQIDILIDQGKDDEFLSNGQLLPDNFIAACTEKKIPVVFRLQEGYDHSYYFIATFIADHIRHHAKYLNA
Chain of UniProt Q9UH17 (whole entry, looked up): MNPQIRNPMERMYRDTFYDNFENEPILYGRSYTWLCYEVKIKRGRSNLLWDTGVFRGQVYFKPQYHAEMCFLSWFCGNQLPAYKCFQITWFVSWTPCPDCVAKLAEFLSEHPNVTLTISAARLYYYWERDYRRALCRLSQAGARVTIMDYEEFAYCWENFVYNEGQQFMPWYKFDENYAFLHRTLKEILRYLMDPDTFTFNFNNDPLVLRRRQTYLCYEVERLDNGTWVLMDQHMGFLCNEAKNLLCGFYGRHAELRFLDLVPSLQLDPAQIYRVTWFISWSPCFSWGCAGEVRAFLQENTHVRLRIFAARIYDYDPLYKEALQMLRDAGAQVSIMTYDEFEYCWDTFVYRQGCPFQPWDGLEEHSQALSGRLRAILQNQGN
Chain of UniProt Q9UM07 (whole entry, looked up): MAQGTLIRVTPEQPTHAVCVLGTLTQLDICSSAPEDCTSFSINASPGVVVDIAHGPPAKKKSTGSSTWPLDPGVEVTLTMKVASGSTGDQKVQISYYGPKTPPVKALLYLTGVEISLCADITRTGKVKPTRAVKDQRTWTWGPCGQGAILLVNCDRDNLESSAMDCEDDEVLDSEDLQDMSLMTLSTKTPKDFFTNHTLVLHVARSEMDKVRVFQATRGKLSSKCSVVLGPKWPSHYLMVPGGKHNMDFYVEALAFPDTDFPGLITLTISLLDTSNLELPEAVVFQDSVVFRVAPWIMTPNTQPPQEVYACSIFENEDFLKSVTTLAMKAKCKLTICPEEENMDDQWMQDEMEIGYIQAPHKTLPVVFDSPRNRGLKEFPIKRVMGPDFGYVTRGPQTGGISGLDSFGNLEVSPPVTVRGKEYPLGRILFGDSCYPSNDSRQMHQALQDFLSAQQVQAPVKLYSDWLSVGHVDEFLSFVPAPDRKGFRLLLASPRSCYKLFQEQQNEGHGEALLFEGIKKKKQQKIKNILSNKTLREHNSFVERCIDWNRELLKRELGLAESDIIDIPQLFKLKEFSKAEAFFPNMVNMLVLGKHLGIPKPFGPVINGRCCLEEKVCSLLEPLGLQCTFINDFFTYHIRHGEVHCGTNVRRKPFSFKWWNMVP
Chain of UniProt P36896 (whole entry, looked up): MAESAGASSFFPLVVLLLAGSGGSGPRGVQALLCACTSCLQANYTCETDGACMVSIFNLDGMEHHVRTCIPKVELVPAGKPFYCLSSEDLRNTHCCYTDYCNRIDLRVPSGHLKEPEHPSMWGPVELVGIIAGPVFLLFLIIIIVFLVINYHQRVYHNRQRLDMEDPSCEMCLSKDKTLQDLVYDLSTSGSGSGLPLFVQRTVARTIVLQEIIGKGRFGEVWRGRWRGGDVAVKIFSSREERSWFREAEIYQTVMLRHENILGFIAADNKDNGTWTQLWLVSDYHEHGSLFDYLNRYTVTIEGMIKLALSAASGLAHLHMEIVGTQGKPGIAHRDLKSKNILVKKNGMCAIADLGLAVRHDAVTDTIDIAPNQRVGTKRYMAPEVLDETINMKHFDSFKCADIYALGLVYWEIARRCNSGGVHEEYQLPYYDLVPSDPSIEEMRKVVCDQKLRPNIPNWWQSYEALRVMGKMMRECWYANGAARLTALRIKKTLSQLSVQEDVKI
Chain of UniProt P20273 (whole entry, unmodified, looked up): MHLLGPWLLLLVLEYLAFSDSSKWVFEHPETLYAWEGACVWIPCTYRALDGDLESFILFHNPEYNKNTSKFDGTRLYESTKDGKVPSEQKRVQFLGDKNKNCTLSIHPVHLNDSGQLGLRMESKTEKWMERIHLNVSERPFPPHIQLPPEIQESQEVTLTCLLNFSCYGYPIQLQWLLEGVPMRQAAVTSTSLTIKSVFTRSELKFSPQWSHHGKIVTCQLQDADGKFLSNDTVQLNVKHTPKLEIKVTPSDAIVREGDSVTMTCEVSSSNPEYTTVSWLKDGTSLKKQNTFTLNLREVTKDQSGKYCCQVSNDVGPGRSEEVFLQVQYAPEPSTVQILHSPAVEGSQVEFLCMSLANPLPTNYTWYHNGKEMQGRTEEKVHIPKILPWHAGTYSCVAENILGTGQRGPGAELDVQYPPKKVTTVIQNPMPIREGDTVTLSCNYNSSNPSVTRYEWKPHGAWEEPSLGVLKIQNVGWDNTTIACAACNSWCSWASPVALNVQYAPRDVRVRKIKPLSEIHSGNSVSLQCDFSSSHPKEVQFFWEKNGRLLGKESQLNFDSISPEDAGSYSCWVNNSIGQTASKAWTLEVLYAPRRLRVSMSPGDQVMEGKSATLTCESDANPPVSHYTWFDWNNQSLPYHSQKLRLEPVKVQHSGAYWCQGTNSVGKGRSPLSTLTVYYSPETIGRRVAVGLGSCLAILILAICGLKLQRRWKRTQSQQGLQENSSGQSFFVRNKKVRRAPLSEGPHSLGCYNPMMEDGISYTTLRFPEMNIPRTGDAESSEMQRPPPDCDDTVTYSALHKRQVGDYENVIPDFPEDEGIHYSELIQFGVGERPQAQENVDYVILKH
Chain of UniProt Q6PE15 (whole entry, looked up): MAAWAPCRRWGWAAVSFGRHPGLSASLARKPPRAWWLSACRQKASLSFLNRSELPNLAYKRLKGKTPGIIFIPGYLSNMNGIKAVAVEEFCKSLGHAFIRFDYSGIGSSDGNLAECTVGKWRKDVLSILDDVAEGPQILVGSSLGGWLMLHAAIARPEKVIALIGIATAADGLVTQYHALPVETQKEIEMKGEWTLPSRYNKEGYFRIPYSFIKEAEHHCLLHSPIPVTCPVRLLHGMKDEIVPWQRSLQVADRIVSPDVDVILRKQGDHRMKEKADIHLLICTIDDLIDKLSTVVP

COCC1CCCCN1C(=O)n1cc(C(O)(c2ccccc2)c2ccccc2)nn1 (stereo not shown) — SILAC activity ratio (Palmitoyl-protein thioesterase ABHD10, mitochondrial (Mus musculus, UniProt Q6PE15); probe labelling, inhibitor, competitive ABPP-SILAC, item: Abhd10; mouse T cells; concentration not given, 4 h, protein level; relative to: treated over DMSO cells, lower = stronger inhibition): 1.35
C=C(c1ccccc1)[C@H](N)P(=O)(O)O — ΔH (PAL1 (Petroselinum crispum, UniProt P24481, Y110F); binding, ITC): -6 kcal/mol
O=C1NC(=O)c2c1c1cc(F)c[n+]3c1c1c2c2cc(O)ccc2[n]1[Ru-4]312([N]=C=S)[S+]3CC[S+]1CC[S+]2CC3 (stereo not shown) — remaining activity (EPHB4; enzyme activity; 100 nM, human enzyme, added: 10 µM ATP; relative to: untreated): 111%
COc1ccccc1-c1n[nH]c2nc(N[C@H]3CC[C@H](NS(=O)(=O)CC(C)C)CC3)ncc12 — remaining binding (cdc2-related kinase 12 (Leishmania donovani, UniProt A0A3S7WQK2); kinobead competition pull-down; Leishmania donovani, cell extract; 0.0032 µM; relative to: vehicle): 39%
N[C@H](C(=O)N1CCCC1)C1CCN(c2nccc3c(-c4ncc(Cl)cc4Cl)cccc23)CC1 — kcat (Protein-arginine deiminase type-4 (PADI4, Homo sapiens, UniProt Q9UM07); enzyme activity; 0.0983 µM, low-affinity site, added: Ca2+ 0.25 mM): 0.224 s⁻¹ and 0.193 s⁻¹
CC(O)C1CN(C(Cc2ccc3ccccc3c2)CN2CCCC2CN2CCNCC2CO)CCN1CCCC1CCCC1 (stereo not shown) — remaining binding (Oprd1; radioligand binding; rat brain membranes; 500 nM, pH 7.5, 25 °C, added: 2 nM [3H]DPDPE): 92%
CON(C(=O)c1cn(C)nc1C(F)F)C(C)Cc1c(Cl)cc(Cl)cc1Cl (stereo not shown) — reaction velocity (SDHD/SDHC/SDHB (Sus scrofa, UniProt A5GZW8+D0VWV4+Q007T0); enzyme activity, inhibitor, DCIP reduction; pig; 0.1 µM, added: DCIP 160 µM): 0.0229 µM/s and 0.0218 µM/s and 0.0227 µM/s
O=C1NC2(CC2)COc2ncc(F)cc2[C@H]2COCCN2c2ccn3ncc1c3n2 — creatine kinase activity (Sprague-Dawley rat, female, serum; oral, 10 mg/kg/day, 4 weeks daily, end of treatment): 462 ± 123 U/L
CC(C)C[C@H](NC(=O)[C@H](CCC(=O)O)NC(=O)[C@@H](N)Cc1ccccc1)C(=O)N[C@@H](CCC(=O)O)C(=O)N[C@@H](CCCNC(=N)N)C(=O)N[C@@H](CCCNC(=N)N)C(=O)N[C@@H](Cc1ccccc1)C(=O)N[C@@H](CCCCN)C(=O)N[C@@H](CCC(N)=O)C(=O)N[C@@H](CCC(N)=O)C(=O)O — promoter binding (NKX2-3; ChIP-qPCR, item: PDE1C promoter; TPCs; concentration not given): 0.0285 % input
Oc1ccc(C[C@@H]2CN([C@@H](CC3CCCCC3)CN3CCC[C@H]3CN3CCNC[C@@H]3Cc3ccc4ccccc4c3)CCN2CCCC2CCCC2)cc1 — remaining binding (Oprd1; radioligand binding; rat brain membranes; 500 nM, pH 7.5, 25 °C, added: 2 nM [3H]DPDPE): 93.3%
CN(C)[C@H]1C[C@@]23CC[C@@]4(O2)C(=CC[C@]2(C)[C@@H](c5ccc6ccncc6c5)CC[C@H]24)C=C3[C@@H](O)[C@@H]1O — inhibition (Serine/threonine-protein kinase PRP4 homolog (PRPF4B, Homo sapiens, UniProt Q13523); ATP probe labelling, inhibitor, KiNativ profiling; 0.1 µM): -3.7%
CCC(C)C1CN(C(CC2CCCCC2)CN2CCCC2CN2CCNCC2CO)CCN1CCCC1CCCC1 (stereo not shown) — remaining binding (Oprd1; radioligand binding; rat brain membranes; 500 nM, pH 7.5, 25 °C, added: 2 nM [3H]DPDPE): 88.7%
CCc1nnc(-c2c(OC)cc(-c3cnc4cc(-c5cnn(C)c5)ccn34)cc2OC)o1 — remaining binding (Histamine H1 receptor (HRH1, Homo sapiens, UniProt P35367); antagonist radioligand, radioligand binding; 10 µM, SafetyScreen44 H1 mean; lower = stronger displacement): 106%
O=C(CF)N[C@H]1[C@H]([C@H](O)[C@H](O)CNC(=O)c2ccc(Oc3ccccc3)cc2)O[C@@](OCc2cccc(Cl)c2Cl)(C(=O)O)C[C@@H]1O — -TΔS (B-cell receptor CD22 (CD22, Homo sapiens, UniProt P20273); isothermal titration calorimetry): 0.33 ± 0.07 kcal/mol
O=C(O)c1ccc(-c2nc(-c3ccccc3Cl)c3sccn23)cc1 — specific binding (5-HT1B receptor; radioligand binding; 10 µM; relative to: control): 98.7% and 87.1%
CC(C)CC(O)(CC(C)C)c1cn(C(=O)N2CCCC2)nn1 — SILAC ratio (S-formylglutathione hydrolase (Esd, Mus musculus, UniProt Q9R0P3); probe labelling, inhibitor, competitive ABPP-SILAC, item: Esd; mouse T cells; concentration not given, 4 h, in situ, single peptide; relative to: treated over DMSO, lower = more inhibition): 0.93 and 1.23 and 0.91 and 0.95 and 0.92 and 1 and 1.19 and 1.02
CN(C)CCCSC(=S)N1CCN(C(=O)/C=C/c2coc3ccccc3c2=O)CC1 — MST response (Nucleoprotein (N, Tomato spotted wilt virus, UniProt P25999, R94A/Y184A); binding, microscale thermophoresis; 62.5 µM; dose series): 1.06 a.u.
C=CC(=O)Nc1cc(-c2ccc(C(=O)N3CCCC(O)(CC)C3)cc2)ccc1F (stereo not shown) — adducted protein (DNA dC->dU-editing enzyme APOBEC-3B, C-terminal domain (Homo sapiens, UniProt Q9UH17); covalent adduct, intact protein MS, item: mass +397 Da adduct of 25735 Da; 500 µM, 5 h, 20-fold molar excess): 80% and 100%
CC(C)CCCC(C)C1CCC2C3CCC4CC(OC5OC(C)C(OC6OC(C)C(OC7OC(C)C(OC8OC(C)C(OS(=O)(=O)O)C(OS(=O)(=O)O)C8OS(=O)(=O)O)C(OS(=O)(=O)O)C7OS(=O)(=O)O)C(OS(=O)(=O)O)C6OS(=O)(=O)O)C(OS(=O)(=O)O)C5OS(=O)(=O)O)CCC4(C)C3CCC12C (stereo not shown) — relative inhibitory activity (Heparanase (HPSE, Homo sapiens, UniProt Q9Y251); enzyme activity, inhibitor; concentration not given; relative to: 10): ~3 fold
C[C@]12C(c3cccnc3)=C[C@H]3[C@@H](CCC4=C[C@H](O)CC[C@@]43C)[C@@H]1CC[C@@H]2O — remaining activity (7-alpha-hydroxycholest-4-en-3-one 12-alpha-hydroxylase (Homo sapiens, UniProt Q9UNU6, W281F); inhibitor; 80 µM, added: 7α-hydroxycholest-4-en-3-one 0.54 µM): 13 ± 2.78%
CCCCC[C@@H]1OC(=O)[C@@H](C)N(C)C(=O)[C@H](CCCCC)OC(=O)[C@@H](C)N(C)C(=O)[C@H](CCCCC)OC(=O)[C@@H](C)N(C)C(=O)[C@H](CCCCC)OC(=O)[C@@H](C)N(C)C1=O — open dwell time constant T1 (ryanodine receptor 2 (Sus scrofa, UniProt A0A5G2R1W3); single-channel gating, planar lipid bilayer; 3 µM, pCa 7, porcine): 3 ± 1.9 ms
CCCCC/C=C\C/C=C\C/C=C\C/C=C\CCCC(=O)NCCc1ccc(O)c(O)c1 — Hill coefficient (Transient receptor potential cation channel subfamily V member 1 (Trpv1, Mus musculus, UniProt Q704Y3); ion current, agonist, whole-cell patch clamp; HEK293): 1.49 ± 0.29
CC(C)[C@H]1NC(=O)C[C@H]2/C=C/CCSSC[C@@H](NC1=O)C(=O)N[C@H](Cc1cccc3ccccc13)C(=O)NCC(=O)O2 — inhibition (Serine/threonine-protein kinase BRSK2 (BRSK2, Homo sapiens, UniProt Q8IWQ3); enzyme activity, inhibitor; 10 µM): 3.7%
CS(C)(=O)=Nc1ccc(-c2ccc(-c3nc4cc(O[C@@H]5CO[C@H]6[C@@H]5OC[C@H]6O)[nH]c4cc3F)cc2)cc1 — inhibition (EPHB4; enzyme activity, inhibitor; 10 µM): 12%
CC(C)C[C@@H](N)C(=O)NCC(=O)N[C@H](C)C(=O)N[C@H](CO)C(=O)N[C@H](Cc1c[nH]c2ccccc12)C(=O)N[C@H](Cc1c[nH]cn1)C(=O)N[C@H](CCCNC(=N)N)C(=O)N1CCC[C@@H]1C(=O)N[C@H](CC(=O)O)C(=O)N[C@H](CCCCN)C(=O)N[C@H](CCCCN)C(=O)N[C@H](CCCNC(=N)N)C(=O)NCCCCCC(=O)N[C@@H](CCCCN)C(=O)N[C@@H](CCCNC(=N)N)C(=O)N[C@@H](CCCCN)C(=O)N[C@@H](CCC(N)=O)C(=O)N[C@@H](CCCNC(=N)N)C(=O)NCC(=O)N1CCC[C@H]1C(=O)NCC(=O)N[C@@H](CCCNC(=N)N)C(=O)N[C@@H](C)C(=O)N[C@@H](Cc1ccccc1)C(N)=O — inhibition of binding (C-C chemokine receptor type 5 (CCR5, Homo sapiens, UniProt P51681); CHO expressing CCR5; 50 µM, 40 min, 4 °C, added: mAb 45523 4 µg/mL): 17.2%
C[C@H](Oc1ccc(C(=O)c2ccc(F)cc2)cc1)C(=O)N1CCc2ccc(C(F)(F)F)cc21 — IC50 ratio (Dihydroorotate dehydrogenase (quinone), mitochondrial (PFF0160c, Plasmodium falciparum, UniProt Q08210, E182D); enzyme activity, DCIP colorimetric; relative to: E182D mutant over wild type): 0.5
CCOC(=O)[C@@H]1Cc2c(cc([N+](=O)[O-])cc2[N+](=O)[O-])[C@H](O)[C@]12C(=O)Nc1ccc(Br)cc12 — remaining binding (Activin receptor type-1B (ACVR1B, Homo sapiens, UniProt P36896); binding, competition with immobilised ligand; 0.1 µM): 89%
CC(=O)N[C@@H](CCC(N)=O)C(=O)N[C@@H](CC1CCCCC1)C(=O)N[C@@H](CNC(=O)CCl)C(=O)N[C@@H](CC(C)C)C(=O)N[C@@H](Cc1ccccc1)C(=O)O — -TΔS (Beta sliding clamp (Escherichia coli, UniProt P0A988); binding, isothermal titration calorimetry; 22 °C): -0.3 kcal/mol
